Measured values from different studies.
Protocols differ between the studies behind these lines. “And” joins repeats or separate records; there may be more than shown. Numbers after ± are the reported error.
TDP1: Tyrosyl-DNA phosphodiesterase 1 (TDP1, Homo sapiens, UniProt Q9NUW8)
Sequence of UniProt Q9NUW8 (whole entry, looked up): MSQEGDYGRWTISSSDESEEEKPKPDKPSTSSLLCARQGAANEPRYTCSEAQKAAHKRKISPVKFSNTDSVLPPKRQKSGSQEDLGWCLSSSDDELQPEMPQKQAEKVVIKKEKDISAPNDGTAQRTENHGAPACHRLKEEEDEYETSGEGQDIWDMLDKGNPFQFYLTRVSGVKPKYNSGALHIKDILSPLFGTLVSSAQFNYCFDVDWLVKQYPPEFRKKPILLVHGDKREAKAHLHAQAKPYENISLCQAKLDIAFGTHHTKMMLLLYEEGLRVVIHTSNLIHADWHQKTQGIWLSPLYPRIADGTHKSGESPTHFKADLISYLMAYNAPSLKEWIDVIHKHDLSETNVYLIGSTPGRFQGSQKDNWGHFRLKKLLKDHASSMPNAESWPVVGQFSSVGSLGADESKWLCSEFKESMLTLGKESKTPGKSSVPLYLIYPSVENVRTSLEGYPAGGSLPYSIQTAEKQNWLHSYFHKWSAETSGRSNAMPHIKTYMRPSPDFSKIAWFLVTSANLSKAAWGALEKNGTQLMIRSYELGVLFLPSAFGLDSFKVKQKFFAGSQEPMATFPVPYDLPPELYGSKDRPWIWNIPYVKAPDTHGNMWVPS

| Structure (SMILES) | target or system | assay | conditions | scale | measurement | value |
| --- | --- | --- | --- | --- | --- | --- |
| Cn1ncc2cc(-c3cncc(Cl)c3N3CCC4(CCNC4=O)CC3)ccc21 | LS174T | gene expression, microarray, refers to: POU2AF1 mRNA | concentration not given, 24 h | relative to: untreated cells | log2 fold change | 2.45 |
| Cc1c(Cl)cccc1Nc1ccccc1C(=O)[Se]CC(=O)Nc1cccc(C(F)(F)F)c1 | NCI60 melanoma subpanel | total growth inhibition, inhibitor | five-dose |  | mean TGI | 3.05 µM |
| O=[C]=[Mn-2]12(=[C]=O)(=[C]=O)[O]c3cc4c(cc3=[N+]1CCc1ccccc1)[O][Mn-2](=[C]=O)(=[C]=O)(=[C]=O)([N+]=4CCc1ccccc1)[n+]1ccc(cc1)C(=O)Nc1ccccc1NC(=O)c1cc[n+]2cc1 | HCT-15 | MTT | 50 µM, 48 h, photolysed compound |  | viability reduction | 65% |
| C=CC(=O)Nc1cc(Nc2nccc(-c3c(-c4ccc(C(F)(F)F)cc4)n(C)c4ccccc34)n2)c(OC)cc1N(C)CCN(C)C | NCI-H1975 | cell growth or viability, MTT | 0.5 µM, 72 h |  | inhibition | 71.2% |
| O=C(O)c1ccc(Nc2c(-c3ccc(CON=Cc4c(O)c(C(=O)O)cc5ccccc45)cc3)nc3cc(-c4ccccc4)ccn23)cc1 (mixture of isomers) | TDP1 | enzyme activity, inhibitor | 100 µM, unpurified compound |  | inhibition | 102% |
| CN1CCC(N[C@@H]2CCc3[nH]c4c(C(N)=O)ccc(-c5ccccc5Cl)c4c3C2)CC1 | K562/DOX, doxorubicin-resistant | cell growth, CellTiter-Glo | 96 h |  | IC50 | 0.0305 µM |
| Cc1ccc(C(=O)/C=C/c2ccccc2)s1 | HOP-62 | SRB | 10 µM |  | growth inhibition | < 0% |
| CCN(CC)CC(=O)Nc1cccc(-n2cc(-c3ccc4ccc(-c5cn(-c6cccc(NC(=O)CN(CC)CC)c6)nn5)cc4c3)nn2)c1 | RCC4 | PCR array, refers to: EGF | 5 x IC50, 4 h, normoxia | relative to: untreated | fold regulation | -1.51 |
| C=CC(=O)Nc1cc(Nc2nccc(-c3c(-c4ccc(C(C)(C)C)cc4)n(C)c4ccccc34)n2)c(OC)cc1N(C)CCN(C)C | NCI-H1975 | cell growth or viability, MTT | 0.5 µM, 72 h |  | inhibition | 65.3% |
| CC(C)Cc1ccc(C(C)C(=O)[Se]CC(=O)Nc2cccc(C(F)(F)F)c2)cc1 (stereo not drawn) | NCI60 melanoma subpanel | cell growth | 10 µM, 48 h, one-dose |  | mean growth percent | -82.5% |
| Cc1ncsc1-c1ccc(C(C)NC(=O)C2CC(O)CN2C(=O)C(NC(=O)CCCCCCCCCCN2CCCC(Nc3ncc(Cl)c(Nc4ccccc4S(=O)(=O)C(C)C)n3)C2)C(C)(C)C)cc1 (stereo not drawn) | 22Rv1 | RNA-seq, refers to: LHX4 mRNA | concentration not given | relative to: DMSO | log2 fold change | -1.41 |
| CCOC(=O)c1ccc(NC(=O)C(C#N)=C2C(=O)c3ccccc3C2=O)cc1 | HepG2 | cell growth or viability, MTT | 25 µM, 24 h |  | viability | 50% |
| COc1cccc(OC)c1-c1cc(C(=O)NC2(C(=O)O)C3CC4CC(C3)CC2C4)nn1-c1ccc(C(=O)N(C)CCCN(C)CCCN(C)C(=O)[C@H](CCCCNC(=O)[C@H](CC(C)C)NC(=O)C2OC2C(=O)O)NC(=O)CN2CCN(CC(=O)[O-])CCN(CC(=O)[O-])CCN(CC(=O)[O-])CC2)cc1C(C)C.[177Lu+3] (mixture of isomers) | HT-29 |  | concentration not given, 60 min | relative to: added activity | surface-bound fraction | 3.76 ± 0.2% |
| COC(=O)c1cc(NC2=NC(=O)C(=Cc3ccc(C)cc3)S2)ccc1OC(C)=O | MCF7 | GC-MS, refers to: Citric acid | 1 µM | relative to: DMSO | metabolite level | 0.08 fold change |
| Cc1cc(-c2ccc(NC(=O)CC[C@H](NC(=O)CN3CCN(CC(=O)O)CCN(CC(=O)O)CCN(CC(=O)O)CC3)C(=O)NCC(=O)N[C@@H](CC(N)=O)C(=O)N[C@H](C(=O)N[C@H](C(=O)N[C@@H](CCCNC(=N)N)C(=O)N[C@@H](CCC(N)=O)C(=O)O)C(C)C)C(C)C)c(C)c2)ccc1/N=N/c1ccc2c(S(=O)(=O)O)cc(S(=O)(=O)O)c(N)c2c1O [copper-64 labelled] | 143B osteosarcoma | gamma counting | 45 min, 37 °C, 0.74 MBq, radiolabelled | relative to: added activity per well | cellular uptake | 1.45 ± 0.17% |
| CCCCCCc1cccc([C@H](O)C[C@H](CO)NC(=O)CCCCCCCCCCBr)c1 | HeLa | CERT activity, HPLC-MS/MS lipidomics, refers to: lactosylceramide 16 | 1 µM, 24 h, not cell-number normalised |  | lactosylceramide level | 27700 pmol/sample and 30000 pmol/sample and 21100 pmol/sample |
| Cn1c2ccccc2n2c(C=NOCc3ccc4nc(-c5ccccc5)c(Nc5ccc(C(=O)O)cc5)n4c3)c(-c3ccccc3)nc12 | TDP1 | enzyme activity, inhibitor | 100 µM, unpurified compound |  | inhibition | 106% |

| Structure (SMILES) | target or system | assay | conditions | scale | measurement | value |
| --- | --- | --- | --- | --- | --- | --- |
| CN(C)C(=O)c1ccnc(N2Cc3cn(Cc4cc(F)cc(F)c4)nc3C2)n1 | HEK293 expressing GluA1 and GluA2 | glutamate excitotoxic cell death, CellTox Green | together with: glutamate |  | IC50 | 0.024 µM |
| C=CC(=O)Nc1cc(Nc2nccc(-c3c(-c4ccc(OCC)cc4)n(C)c4ccccc34)n2)c(OC)cc1N(C)CCN(C)C | NCI-H1975 | cell growth or viability, MTT | 0.5 µM, 72 h |  | inhibition | 62.3% |
| CSC(=S)N/N=C(\C)c1ccc(Nc2nnc(-c3ccc(Cl)cc3)c3ccccc23)cc1 | MCF7 | cell growth or viability, MTT | 2.5 µM, 24 h |  | viability | 10.4% |
| O=C(C[Se]C(=O)c1ccc2ccccc2n1)Nc1cccc(C(F)(F)F)c1 | NCI60 CNS subpanel | cell growth | 10 µM, 48 h, one-dose |  | mean growth percent | -91.5% |
| N#Cc1cccc(/C=C/C(=O)c2ccc(O)cc2)c1 | U-87 MG | refers to: ATOH8 | concentration not given | relative to: untreated | fold change | 0.054 |
| CN(C)CCN1CCN(c2ccc3nc(-c4ccc5nc(-c6ccc(C(F)(F)F)cc6)[nH]c5c4)[nH]c3c2)CC1 | HOP-62 | SRB | 10 µM, 48 h |  | growth percent | 57.6% |
| COc1ccc2c(c1)c(CC(=O)[Se]CC(=O)Nc1cccc(C(F)(F)F)c1)c(C)n2C(=O)c1ccc(Cl)cc1 | NCI60 leukaemia subpanel | NCI60 five-dose screen |  |  | GI50 | 2.02 µM |
| CN1CCCNC(=O)c2cccc(c2)C(=O)NCCCN(C)CCCNc2cccc3c2C(=O)c2cccc(c2C3=O)NCCC1 | SAS | RNA-Seq, refers to: PUM3 mRNA | 1 µM, 6 h | relative to: untreated cells | log2 fold change | -0.812 |
| O=C(C[Se]C(=O)c1cc2ccccc2[nH]1)Nc1cccc(C(F)(F)F)c1 | NCI60 leukaemia subpanel | NCI60 five-dose screen |  |  | mean TGI | 3.65 µM |
| COc1ccc(CSC2C3=C(CCCC3=O)Oc3ccc(Br)cc32)cc1 (stereo not drawn) | 3T3-L1 preadipocytes | adipogenesis, Oil Red O staining | IC20, 14 days, single replicate |  | lipid content | 0.956 OD492 |
| O=C(C[Se]C(=O)c1ccc2ccccc2c1)Nc1cccc(C(F)(F)F)c1 | NCI60 CNS subpanel | NCI60 five-dose screen |  |  | mean TGI | 3.58 µM |
| C[C@@H]1Cc2c([nH]c3ccccc23)[C@@H](c2c(F)cc(/C=C/C(=O)O)cc2F)N1C12CC(C1)C2 | MCF7 | RNA-seq, refers to: LIPH mRNA | 1 µM, 24 h, E2-suppressed gene | relative to: DMSO vehicle | log2 fold change | 1.36 |
| CNS(=O)(=O)Nc1nccc(Cc2c(C)c3ccc(Oc4ncccc4F)cc3oc2=O)c1F | TCC-SUP | cell viability, inhibitor, CellTiter-Glo | 7 days |  | IC50 | > 1 µM |
| CN(C)C(=O)c1ccnc(N2Cc3cn(Cc4ccc(F)cc4)nc3C2)n1 | HEK293 expressing GluA1 and GluA2 | glutamate excitotoxic cell death, CellTox Green | together with: glutamate |  | IC50 | 0.082 µM |
| CC(C)c1ccc(N(C)c2ccc3c(c2)OCC[C@H]3CNc2cnccc2C(=O)O)cc1 | Capan-2 | cell growth or viability, ATP luminescence | 7 days |  | IC50 | ≥ 10 µM |
| CN(C)c1ccc(-n2cc(COC(=O)[C@]3(C)C=C(C(=O)OC(C)(C)C)C(=O)CC3)nn2)cc1 | HeLa | quantitative western blot | concentration not given, 7 (unit not given), together with: EGF |  | pRSK/tubulin ratio | 0.166 |

Excerpt of the above:
| Structure (SMILES) | target or system | assay | conditions | scale | measurement | value |
| --- | --- | --- | --- | --- | --- | --- |
| CSC(=S)N/N=C(\C)c1ccc(Nc2nnc(-c3ccc(Cl)cc3)c3ccccc23)cc1 | MCF7 | cell growth or viability, MTT | 2.5 µM, 24 h |  | viability | 10.4% |
| C=CC(=O)Nc1cc(Nc2nccc(-c3c(-c4ccc(C(C)(C)C)cc4)n(C)c4ccccc34)n2)c(OC)cc1N(C)CCN(C)C | NCI-H1975 | cell growth or viability, MTT | 0.5 µM, 72 h |  | inhibition | 65.3% |
